Experimental data collected from several papers.
Each numbered part is a random draw from the data of one study; scales do not carry over between parts. Several values in a cell are separate wells, animals, samples, runs or records.
UniProt P51812, sequence (whole entry, looked up): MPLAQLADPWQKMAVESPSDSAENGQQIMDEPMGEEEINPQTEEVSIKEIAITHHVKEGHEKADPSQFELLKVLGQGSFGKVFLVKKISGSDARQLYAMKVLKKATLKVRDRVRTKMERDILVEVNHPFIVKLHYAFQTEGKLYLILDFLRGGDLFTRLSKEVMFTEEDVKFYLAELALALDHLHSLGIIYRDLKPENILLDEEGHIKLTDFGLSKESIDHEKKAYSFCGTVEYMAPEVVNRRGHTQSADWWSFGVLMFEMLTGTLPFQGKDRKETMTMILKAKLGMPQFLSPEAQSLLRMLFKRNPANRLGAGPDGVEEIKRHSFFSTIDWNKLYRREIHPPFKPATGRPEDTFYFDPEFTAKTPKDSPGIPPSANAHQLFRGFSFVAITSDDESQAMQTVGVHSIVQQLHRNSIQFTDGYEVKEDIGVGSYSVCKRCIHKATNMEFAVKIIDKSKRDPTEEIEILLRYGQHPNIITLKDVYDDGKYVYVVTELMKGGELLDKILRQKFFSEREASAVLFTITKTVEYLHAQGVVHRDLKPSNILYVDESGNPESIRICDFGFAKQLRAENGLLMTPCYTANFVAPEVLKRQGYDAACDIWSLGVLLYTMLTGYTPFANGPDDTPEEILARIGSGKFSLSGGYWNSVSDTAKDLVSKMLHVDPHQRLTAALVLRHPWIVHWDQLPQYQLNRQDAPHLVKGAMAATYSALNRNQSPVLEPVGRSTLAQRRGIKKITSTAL
UniProt P16591, sequence (whole entry, looked up): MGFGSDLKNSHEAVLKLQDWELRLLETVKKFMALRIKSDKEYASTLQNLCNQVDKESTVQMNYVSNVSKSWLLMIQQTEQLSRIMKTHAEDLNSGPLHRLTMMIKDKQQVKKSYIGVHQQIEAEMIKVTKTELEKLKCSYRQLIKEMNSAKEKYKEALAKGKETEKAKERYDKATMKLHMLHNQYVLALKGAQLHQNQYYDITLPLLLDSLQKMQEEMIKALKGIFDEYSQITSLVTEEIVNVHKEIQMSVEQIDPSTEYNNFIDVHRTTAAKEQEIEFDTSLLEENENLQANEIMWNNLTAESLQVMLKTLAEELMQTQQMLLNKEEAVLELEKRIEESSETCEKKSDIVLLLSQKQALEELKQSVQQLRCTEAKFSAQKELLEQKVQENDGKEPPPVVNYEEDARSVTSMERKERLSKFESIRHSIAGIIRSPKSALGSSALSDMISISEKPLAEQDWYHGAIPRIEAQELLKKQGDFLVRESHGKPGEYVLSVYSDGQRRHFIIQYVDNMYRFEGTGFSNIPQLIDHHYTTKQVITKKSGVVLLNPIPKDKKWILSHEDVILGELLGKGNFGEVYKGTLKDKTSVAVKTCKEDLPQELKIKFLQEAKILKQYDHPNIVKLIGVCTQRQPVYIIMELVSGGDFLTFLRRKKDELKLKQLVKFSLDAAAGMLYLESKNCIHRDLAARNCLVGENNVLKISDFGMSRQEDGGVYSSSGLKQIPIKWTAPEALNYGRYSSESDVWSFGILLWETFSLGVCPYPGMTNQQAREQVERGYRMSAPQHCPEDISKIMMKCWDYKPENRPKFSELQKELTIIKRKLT
UniProt P53779, sequence (whole entry, looked up): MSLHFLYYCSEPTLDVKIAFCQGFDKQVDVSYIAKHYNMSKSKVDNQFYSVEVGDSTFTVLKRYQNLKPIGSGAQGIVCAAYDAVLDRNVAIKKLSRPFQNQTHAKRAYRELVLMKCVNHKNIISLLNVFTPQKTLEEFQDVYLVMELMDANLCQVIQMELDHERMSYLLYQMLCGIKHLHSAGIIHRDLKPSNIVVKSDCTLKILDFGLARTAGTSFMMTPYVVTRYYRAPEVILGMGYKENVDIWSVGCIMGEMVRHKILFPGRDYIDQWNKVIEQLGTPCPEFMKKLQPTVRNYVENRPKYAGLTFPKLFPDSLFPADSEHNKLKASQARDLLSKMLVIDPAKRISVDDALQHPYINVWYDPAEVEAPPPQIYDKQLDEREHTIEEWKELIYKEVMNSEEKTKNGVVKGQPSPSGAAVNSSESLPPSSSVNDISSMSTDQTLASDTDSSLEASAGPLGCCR
UniProt P10721, sequence (whole entry, unmodified, looked up): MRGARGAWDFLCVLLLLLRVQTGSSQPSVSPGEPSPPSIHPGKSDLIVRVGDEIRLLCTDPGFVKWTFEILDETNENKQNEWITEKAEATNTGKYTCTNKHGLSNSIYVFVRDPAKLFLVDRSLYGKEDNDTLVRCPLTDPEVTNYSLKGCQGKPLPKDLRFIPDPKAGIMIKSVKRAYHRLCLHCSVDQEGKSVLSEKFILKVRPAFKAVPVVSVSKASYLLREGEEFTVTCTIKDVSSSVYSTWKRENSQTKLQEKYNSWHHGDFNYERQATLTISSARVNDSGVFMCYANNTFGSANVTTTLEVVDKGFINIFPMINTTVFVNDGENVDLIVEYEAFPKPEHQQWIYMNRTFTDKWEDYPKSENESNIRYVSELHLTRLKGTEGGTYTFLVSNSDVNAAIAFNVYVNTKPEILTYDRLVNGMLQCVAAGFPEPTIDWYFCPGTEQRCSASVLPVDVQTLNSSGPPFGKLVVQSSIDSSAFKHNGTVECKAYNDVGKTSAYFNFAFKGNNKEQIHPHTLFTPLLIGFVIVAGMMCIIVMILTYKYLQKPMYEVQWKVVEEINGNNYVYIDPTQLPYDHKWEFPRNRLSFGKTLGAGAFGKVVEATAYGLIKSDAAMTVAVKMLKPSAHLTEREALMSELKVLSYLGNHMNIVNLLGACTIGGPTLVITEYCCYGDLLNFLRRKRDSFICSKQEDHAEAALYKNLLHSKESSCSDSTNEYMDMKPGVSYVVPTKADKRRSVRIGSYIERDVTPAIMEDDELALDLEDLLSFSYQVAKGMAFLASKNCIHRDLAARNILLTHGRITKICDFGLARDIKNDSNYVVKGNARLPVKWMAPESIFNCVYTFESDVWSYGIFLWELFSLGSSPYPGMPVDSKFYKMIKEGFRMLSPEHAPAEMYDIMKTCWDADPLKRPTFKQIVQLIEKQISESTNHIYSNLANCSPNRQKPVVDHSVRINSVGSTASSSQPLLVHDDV
UniProt O14757, sequence (whole entry, looked up): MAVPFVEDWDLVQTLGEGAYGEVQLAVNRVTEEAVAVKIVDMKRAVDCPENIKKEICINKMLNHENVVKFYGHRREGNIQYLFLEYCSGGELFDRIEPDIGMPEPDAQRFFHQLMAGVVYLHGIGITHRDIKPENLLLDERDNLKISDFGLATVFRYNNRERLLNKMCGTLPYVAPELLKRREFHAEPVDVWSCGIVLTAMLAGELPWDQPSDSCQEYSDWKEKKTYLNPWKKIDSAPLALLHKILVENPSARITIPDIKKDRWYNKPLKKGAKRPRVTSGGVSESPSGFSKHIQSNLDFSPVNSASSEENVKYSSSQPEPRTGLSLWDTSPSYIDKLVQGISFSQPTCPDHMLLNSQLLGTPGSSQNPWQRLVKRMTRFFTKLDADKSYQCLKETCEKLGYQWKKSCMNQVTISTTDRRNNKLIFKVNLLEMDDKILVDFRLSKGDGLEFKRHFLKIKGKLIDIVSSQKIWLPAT
UniProt Q86YV6, sequence (whole entry, looked up): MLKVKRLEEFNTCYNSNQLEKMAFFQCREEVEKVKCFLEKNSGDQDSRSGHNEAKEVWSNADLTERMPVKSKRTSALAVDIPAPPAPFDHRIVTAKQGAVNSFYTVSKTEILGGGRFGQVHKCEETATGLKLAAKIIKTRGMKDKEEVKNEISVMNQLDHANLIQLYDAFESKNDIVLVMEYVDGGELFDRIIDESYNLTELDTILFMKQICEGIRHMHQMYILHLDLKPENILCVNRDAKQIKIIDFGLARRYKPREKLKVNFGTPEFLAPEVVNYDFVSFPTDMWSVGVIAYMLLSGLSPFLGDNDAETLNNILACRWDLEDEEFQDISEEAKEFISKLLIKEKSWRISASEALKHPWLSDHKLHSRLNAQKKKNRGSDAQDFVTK

Block 1
Cell line: Gaucher fibroblasts L444P/L444P
Technique: 4-MUG hydrolysis, cell lysate
Tested at: 1 µM
Baseline: DMSO
Structure (SMILES) | GCase activity
CCOc1ccc2nc(Sc3nc(N4CCOCC4)nc(N4CCOCC4)n3)sc2c1 | 110% and 114% and 107% and 109%
CCOc1ccc2nc(Sc3nc(NCCN4CCOCC4)nc(Nc4ccc(I)cc4)n3)sc2c1 | 107% and 106% and 97% and 98.7% and 98.5%
Ic1cccc(Nc2nc(NCCN3CCOCC3)nc(N3CCOCC3)n2)c1 | 106% and 103% and 112% and 115%
COc1ccc(Nc2nc(NCCN3CCOCC3)nc(N3CCOCC3)n2)cc1 | 101% and 99.6% and 99.1% and 98.2% and 96.3% and 98.5%
Ic1ccc(Nc2nc(NCCN3CCOCC3)nc(NC3CCCCC3)n2)cc1 | 92.7% and 89.9% and 90.5% and 90.3%
Ic1ccc(Nc2nc(NCCN3CCOCC3)nc(N3CCCCC3)n2)cc1 | 109% and 98.8% and 92.5% and 101% and 98.2% and 103%
Ic1ccc(Nc2nc(NCCN3CCOCC3)nc(N3CCSCC3)n2)cc1 | 100% and 98.4% and 88.7% and 103%
Ic1ccc(Nc2nc(NCCCN3CCOCC3)nc(N3CCOCC3)n2)cc1 | 164% and 150% and 143% and 171% and 148%

Block 2
Structure (SMILES): O=C(Nc1ccccc1)Nc1cccc(Oc2ccc3nccn3n2)c1
Read-out: binding
Tested at: 1 µM
target | test | remaining binding
Mast/stem cell growth factor receptor Kit (KIT, Homo sapiens, UniProt P10721, V559D) | – | 0%
Tyrosine-protein kinase Fer (FER, Homo sapiens, UniProt P16591) | – | 100%
Mitogen-activated protein kinase 10 (MAPK10, Homo sapiens, UniProt P53779) | – | 100%
Serine/threonine-protein kinase Chk1 (CHEK1, Homo sapiens, UniProt O14757) | – | 100%
Ribosomal protein S6 kinase alpha-3, N-terminal kinase domain (RPS6KA3, Homo sapiens, UniProt P51812) | competition with immobilised ligand | 100%
Cyclin-dependent kinase 13 (CDK13, Homo sapiens, UniProt Q14004) | – | 100%
Myosin light chain kinase family member 4 (MYLK4, Homo sapiens, UniProt Q86YV6) | – | 100%
Serine/threonine-protein kinase Nek10 (NEK10, Homo sapiens, UniProt Q6ZWH5) | – | 100%

Block 3
Compound: Cn1cc(-c2cccc(CN3CCC4(CC3)COc3c4ccc4c3CN([C@H]3CCC(=O)NC3=O)C4=O)c2)cn1
Target: CRBN/Zinc finger protein Helios (Homo sapiens, UniProt Q96SW2+Q9UKS7)
UniProt Q9UKS7, sequence (whole entry, looked up): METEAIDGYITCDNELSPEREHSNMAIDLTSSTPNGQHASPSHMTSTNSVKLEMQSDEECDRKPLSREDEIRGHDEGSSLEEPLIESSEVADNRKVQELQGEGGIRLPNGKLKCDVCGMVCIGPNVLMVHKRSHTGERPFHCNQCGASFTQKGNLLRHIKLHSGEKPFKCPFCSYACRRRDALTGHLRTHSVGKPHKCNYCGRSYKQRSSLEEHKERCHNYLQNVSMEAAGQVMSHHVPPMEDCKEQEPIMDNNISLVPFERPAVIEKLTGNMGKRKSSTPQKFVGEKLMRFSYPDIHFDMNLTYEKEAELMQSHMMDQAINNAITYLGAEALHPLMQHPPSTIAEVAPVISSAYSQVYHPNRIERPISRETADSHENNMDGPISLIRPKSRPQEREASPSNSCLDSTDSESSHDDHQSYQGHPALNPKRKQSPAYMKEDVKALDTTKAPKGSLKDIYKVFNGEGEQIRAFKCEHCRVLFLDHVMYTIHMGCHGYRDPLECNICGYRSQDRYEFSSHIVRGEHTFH
UniProt Q96SW2, sequence (whole entry, looked up): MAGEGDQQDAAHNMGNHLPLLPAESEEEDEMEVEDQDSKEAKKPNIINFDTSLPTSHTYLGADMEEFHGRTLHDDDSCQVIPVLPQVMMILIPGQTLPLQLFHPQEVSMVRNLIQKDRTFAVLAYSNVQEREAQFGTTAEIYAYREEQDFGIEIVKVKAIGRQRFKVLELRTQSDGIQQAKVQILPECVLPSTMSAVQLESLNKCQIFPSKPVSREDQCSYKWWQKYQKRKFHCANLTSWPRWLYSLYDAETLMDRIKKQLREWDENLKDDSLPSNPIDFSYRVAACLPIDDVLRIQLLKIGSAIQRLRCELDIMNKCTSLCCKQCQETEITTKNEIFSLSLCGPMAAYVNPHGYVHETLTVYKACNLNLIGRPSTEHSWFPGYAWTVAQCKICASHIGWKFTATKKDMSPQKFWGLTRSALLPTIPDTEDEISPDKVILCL
Mode: degrader
Technique: HiBiT
Cells: HEK293
setting | protein remaining
0.4572 nM, 0.5 h | 92.5% and 86.3%
12.35 nM, 0.5 h | 78.6% and 80.8%
333.3 nM, 3 h | 13.1% and 15.9%
37.04 nM, 0.5 h | 74.7% and 71%

Further values, each from its own experiment
Compound | test | system | setting | measurement | value
CC(C)C[C@@H]1NC(=O)[C@@H](N(C)C(=O)[C@@H](NC(=O)[C@@H]2C[C@@H](F)CN2C(=O)C2(C(F)(F)F)CC(F)(F)C2)C2CC2)CCCCCCCN(C)C(=O)[C@H](Cc2cc(Cl)cnc2OC2CC2)N(C)C1=O | immunohistochemistry | mice, sample A PDX, tumour | oral, 100 mg/kg three times daily for 4 d, 8 h after last dose | phospho-KNL1 positive cells | 3.4% and 3%

Repeated from above (block 1):
Structure (SMILES) | GCase activity
Ic1cccc(Nc2nc(NCCN3CCOCC3)nc(N3CCOCC3)n2)c1 | 106% and 103% and 112% and 115%
COc1ccc(Nc2nc(NCCN3CCOCC3)nc(N3CCOCC3)n2)cc1 | 101% and 99.6% and 99.1% and 98.2% and 96.3% and 98.5%
Ic1ccc(Nc2nc(NCCN3CCOCC3)nc(NC3CCCCC3)n2)cc1 | 92.7% and 89.9% and 90.5% and 90.3%
